Experimental data gathered from unrelated publications.
Parts stem from different laboratories: compare values within a part only.

Sample 1 — technique: protein binding microarray; molecule type: double-stranded DNA, one strand shown; sample: in vitro; concentration: not given; reference: not given; direction: higher = stronger binding; measurement: E-score
Target: Histone acetyltransferase KAT6A, both winged helices, GST fusion (KAT6A, Homo sapiens, UniProt Q92794, residues 1-181)
Notes: 8-mer, flanks averaged, mean of 2 arrays, mostly near background
Target sequence (chain): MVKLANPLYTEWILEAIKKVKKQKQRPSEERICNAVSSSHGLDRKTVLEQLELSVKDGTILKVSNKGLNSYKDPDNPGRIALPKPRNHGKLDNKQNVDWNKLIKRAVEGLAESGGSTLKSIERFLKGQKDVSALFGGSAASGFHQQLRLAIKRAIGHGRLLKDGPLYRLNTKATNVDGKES
ATTTGTAC: 0.00481
AAACCCGT: 0.281
ATGATTCG: -0.0417
ACCAGGAT: -0.121
CAACAGCG: 0.174
GCCTCTTA: -0.173
CTGAACCA: -0.0733
TATCTGGA: -0.291
CACTCCAC: -0.239
GCGCTGTA: 0.258
ACCAACAA: -0.132
TCCCGAAA: -0.0418
GCAGGGCC: 0.0159
TGAAGCCA: -0.248
CAACTGGG: -0.169
GATAATCC: -0.106
CTAGCTAC: -0.116
CGGTCTAC: 0.195
CACGTACC: -0.0161
AGGCAACT: -0.11
CCCACCGC: 0.23
TACCGGCA: 0.217
CTAACGTC: 0.0461
GAGCAGCA: -0.0809
AGTATAAG: -0.132

Sample 2 — technique: RNA Bind-n-Seq; molecule type: RNA; sample: in vitro; concentration: 200 nM; notes: whole 134-nt RNA, ends assumed; added: 150 mM LiCl; reference: input library; direction: higher = stronger binding; measurement: log2 enrichment; each molecule: 7-deaza-guanosine replaces G
Target: Fragile X messenger ribonucleoprotein 1, C-terminal low-complexity region (Fmr1, Mus musculus, UniProt P35922)
Constant ends, left off below: GGGAGUUCUACAGUCCGACGAUC … UGGAAUUCUCGGGUGUCAAGG
UGGGAGGUGGAUUUUGUUUAUUUUUUUAGCUCAUUUCCAGGGGUGGGAAUUUUUUUUUAAUAUGUGUCAUGAAUAAAGUUGUUUUUGAAG: -0.0902
ACCAUGCAGGUGGGCAUCUUUGGGAAGUGGGGCAAGGGGGGGAUAGGGAGGGGGGUAACACUUCGGGAACAGGUGGUCCCAGGUCGUUUC: 1.42
UAACUUUAGAGGAGGAUCUGAUGGAUAUGGCAGUGGACGUGGAUUUGGGGAUGGCUAUAAUGAGUAUGGAGGAGGACCUGGAGGUGGCAA: 0.994
ACCAUGCAGGUGGGCAUCUUUGGGCAGUGGGGCAAGGGGGGGAUAGGGAGGGGGGUAACACUUUGGGAACAGGUGGUCCCAGGUCGUUUC: 1.38
AGUCCUGUGCUACACAUCGUAUGUACCGAAUCGGGUUUGGGAAAAAAAGGGUUUGGGAAAGUAUUAUGUUACGCCGUUCGGAUCUGCACU: -3.06
CACAGACAACACGCACCCACACAGACACAGAGGGAAGGGGUUGGGAUGGGGACAGGGUGCACAGCAGGGCGGGGGAGGACCCCAGCCCCU: 1.68
GCAGGAAGUAAAAACAAAUGGAAAUGCUUCGGAUAGUGGCAGGGGUGGAAAUUGCUAAGGAAAGGGUGGGAUGGGAGUGGGUAAAGAGUU: 1.42
UCAAGUCCUGUGCUACACAUCGUAUGUACCGAAUCGGAAAAAAAGGUGGAAAGGAAAGUAUUAUGUUACGCCGUUCGGAUCUGCACUUCC: -0.958
CUCAAGUCCUGUGCUACACAUCGUAUGUACCGAAUCGGCCGGGCCGGGGCCGGGAAAGUAUUAUGUUACGCCGUUCGGAUCUGCACUUCC: 0.491
AGUCCUGUGCUACACAUCGUAUGUACCGAAUCGGGUUUUGGGUUUUGGGGUUUUGGGAAAGUAUUAUGUUACGCCGUUCGGAUCUGCACU: -1.59
CCUCAAGUCCUGUGCUACACAUCGUAUGUACCGAAUCGGGGCGGGCGGGGCGGAAAGUAUUAUGUUACGCCGUUCGGAUCUGCACUUCCA: -1.19

Sample 3 — organism: Saccharomyces cerevisiae; read-out: binding; technique: yeast competitive growth sequencing; molecule type: peptide; strain: cyclin D1-Cln2 strain; sample: peptide tiling library; direction: direction not given; measurement: enrichment score
SSEVARHLLFQSHM: -0.312
DGCSPIKNWSPMRL: 1.59
KPHVSDEEEEEPPFYH: 1.86
DTERAHSTLDEDLERW: 1.37
PKRAKRKLYTSEISSP: -0.966
FQDSGYNELKSCSFDN: 1.47
SMTDFYHSKRRLIFSK: -0.85
PKNAKRNLSSEFAN: -0.523
SAVPLILPQAPSGPSY: 2.62
GLPDFVFQQQPVESEA: 1.85

Sample 4 — technique: protein-binding microarray; molecule type: double-stranded DNA, one strand shown; sample: in vitro; concentration: 0.8 µM; notes: whole 60-bp probe, no competitor; direction: higher = stronger binding; measurement: fluorescence intensity; constant ends, left off below: … GTCTTGATTCGCTTGACGCTGCTG
Target: Centromere-binding protein 1, full length, N-terminal tag (CBF1, Saccharomyces cerevisiae, UniProt P17106, residues 1-351)
UniProt P17106, sequence (whole entry, looked up): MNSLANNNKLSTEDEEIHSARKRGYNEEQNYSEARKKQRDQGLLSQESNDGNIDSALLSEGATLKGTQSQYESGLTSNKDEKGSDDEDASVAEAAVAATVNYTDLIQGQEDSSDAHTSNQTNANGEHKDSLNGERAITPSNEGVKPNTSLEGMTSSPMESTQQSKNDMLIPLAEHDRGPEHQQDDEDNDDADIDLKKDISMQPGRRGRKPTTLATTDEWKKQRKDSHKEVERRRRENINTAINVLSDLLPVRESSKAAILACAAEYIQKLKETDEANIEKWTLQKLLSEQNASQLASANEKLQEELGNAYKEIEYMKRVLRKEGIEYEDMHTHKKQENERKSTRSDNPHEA
CTAATTAGTCTTTTATTCGTGATAAAAGCGAAATTC: 544 a.u.
CTAAAGCGCAAACAGGGCATGATGCAGTTGAATTTC: 493 a.u.
CTATCCACAAGATATTGCGTGACAATTACTATTTTC: 637 a.u.
GAATTTGTTATTGATCACGCCTTGTAGGGGAAATAG: 1470 a.u.
GAATATGAGCCTGATAACGTGAGTCATTCGTTTTAG: 767 a.u.
CTACGATGTATTTACCACGATACTAGCTTTCATTTC: 542 a.u.
CCTAACTACTATAATCATCAGCGATAGCTTCGTACA: 533 a.u.
CCTAACTACTATAATCATCACTTATAGCTTCGTACA: 533 a.u.
CTATATTTAAAATATCAGCAGAGGCGTAAAAGTTTC: 528 a.u.
CTATACCAACAGCACGGCATGATGACTCCAAACTTC: 556 a.u.
GAAGCCTACATACCTCACGATATGATGAATAAATAG: 571 a.u.
GAAGCCAAGTTTTGGAACGTGGTATAATAGGCTTAG: 552 a.u.
TGTACGAAGCTATGTCTCCTGTTTATAGTAGTTAGG: 531 a.u.
GAAGGCTGCGTAGACCACGCAGAACTGTATATGTAG: 498 a.u.
TGTACGAAGCTATGCGTCGTGCGTATAGTAGTTAGG: 490 a.u.
CTATAACGTTTTCATCACCACATGTTTTTTTTTTTC: 966 a.u.
CTAGGAAAAACAAGACATCAGGCCCGCACGTTTTTC: 546 a.u.
CTAATAACAGGACACTACATCAGAGATAATCTTTTC: 485 a.u.
CTATCTTTCCACAAACGCACCACGTTGAGAGTGTTC: 581 a.u.
GAATTTTGGTAAATCAACGTGCAGAAAAAATAATAG: 625 a.u.
GAAAACAGAAGTTAGCATGTGTGAGAGTTTACTTAG: 537 a.u.
GAAAAAACAATACAACGCGTGCCTTTGAAAATGTAG: 605 a.u.
CTAGGTGAGCAAACGCATGTGGAAATGAACAACTTC: 520 a.u.
GAATATTAGCAACAGCACGAGCACATAATGTCTTAG: 723 a.u.
CTATATATTATTCACCTCGGTCACCGCCTGTAATTC: 526 a.u.

Sample 5 — technique: RNA Bind-n-Seq; molecule type: RNA; sample: in vitro; concentration: 365 nM; reference: no-protein control; direction: higher = stronger binding; measurement: RBNS enrichment (R)
Target: RNA binding protein fox-1 homolog 2, RRM domain, GST-SBP tag (RBFOX2, Homo sapiens, UniProt O43251-10, residues 100-194)
Notes: natural RNA segment, single round, ends assumed
Constant ends, left off below: GGGAGUUCUACAGUCCGACGAUC … UGGAAUUCUCGGGUGCCAA
Construct (chain): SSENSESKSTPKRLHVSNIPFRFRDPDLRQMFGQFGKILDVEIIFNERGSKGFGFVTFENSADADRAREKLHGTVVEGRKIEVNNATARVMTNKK
AACACAAUCAGGUGUGGAUUGGUGCUACUUUGAACAAAAGGUCCCCCUGUGGUCUUUUGUUCAACAUUGUACAAUGUAGAACUCUGUCCAACACUAAUUUAUUUUGUCUU: 0.277
AUGGUAGUAGAGGGAUGUGGGUGCCGCUGAGAUCAGGCAGUCCUUGAGGAUAGACAGAUAUACACACCACACACACACACCACAUACACCACACACACACGUUCCCAUCC: 0.293
GUCCUUCUCUGCCAGGCUUGGCACAUGAUGUGAAGAAUAAAUGCCCAAUUCUUACUGUUCAGGUUUGAUGUGGAAUCACAGCUGCAGUGAUAUAUAUUUUUUAUCAGUGC: 0.229
CAUGAAGGAAAAGAAUAGGGAAAAGCUUUCAGCAGUUAUUUAGCCCUUACUCAAAAUCAGAUAAUUAACAAUGAAGGAAACUCUAAACUCCCCUUAUGGUCUACCAGUAA: 0.339
AUUUUAAGUCUCUGUACUUGGCUACACACAGAUUGUAUUUUUAUUGUUAAUGCUCUUCUUAUGGAUACCUGCAUUUAACUUGUGGACUAUGUAAACACAAUAUCUAUCAA: 0.635
GUCCAGCUCAGAUAUUGAGGGCUCUGAAGCCUAGUUCUGUCUUCUCUGGAGCAGCUGUGGCUUCCCCGUGGCUGCUUGGUGACAUGGAUUAGCGCUACGUGGGCUGCAGC: 0.634
UAAUCGCCUUUGCUUGCCUGUCGUCAGUGCAGCGAGCUGAGGCACUUGUCCGUUCGUCUUACCAUCUAACCAAACAAAAGACAAAGAAAUUGUUGUCCUCCAACUCAGCU: 0.172
AACUGCUUGUUUUCGCUCACUUGCCUCCCCUUCAGACAUGUAAGUGCAGUCUCCAAAGCUUGACGUUGCUAAUGACACCUGCCUCGUUGCUUUGCUUAGUUGGCAAAAGC: 1.19
UAAAAACUGCAAGUCUUGAAGAUUUUUGGCAUUCUUUUAAGUAUUUAAACUUAAUCUUUAUAGCUGCCCCAUACAGUAAUCUAUGACCUCUCUGAAUCACUCUUCAAUCU: 0.373
CUGCCCUGCCUGUCAUUGCUGCAAAGAGCUGCUGCUUUGCCAACCUAAGCAAAGAAAAUACGGCUUCUCUUGCAUUAUUUUCCCUUUUGGUUGGUUUGUUUUCUAGAAGU: 0.615
UCUUUAUUUUACUGUGUGCCCCUGGCUGUCCUGGAAAUCACUAUAUUGCUCAGGCUGGCUUCGGACUCAGAGAUCUAUCUGCUUGCCUCCAACAUUUGAGAGCAGAGAGU: 0.347
CUCGCCCACCCCCCAUUCUCUCCUUGGUUUCUUGGCCCUUUACUGUGGCUGUACUUCAGAUCAUCAAAGCAAGAGAAAGAAUGUGCUGAGUGUUUUCUUCCCUGUGCCUU: 0.546
